Measurements collected from several papers.
A part holds a random share of what one study measured.

Study 1
Target: Histone acetyltransferase KAT6A, winged helix 2, GST fusion (KAT6A, Homo sapiens, UniProt Q92794, residues 85-181)
Method: protein binding microarray
Form: double-stranded DNA, one strand shown
Medium: in vitro
Tested at: not given
Setting: 8-mer, flanks averaged, mean of 2 arrays, mostly near background
Baseline: not given
Direction: higher = stronger binding
Target sequence (chain): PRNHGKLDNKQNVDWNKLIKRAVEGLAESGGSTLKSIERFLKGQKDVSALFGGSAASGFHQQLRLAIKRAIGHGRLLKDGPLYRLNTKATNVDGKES
| Oligonucleotide | E-score |
| --- | --- |
| AGGATGTC | -0.0905 |
| AGTACGCG | 0.036 |
| AATCACGG | 0.116 |
| AGAAACCA | 0.0559 |
| AGGGTCGG | 0.157 |
| CTACTTCA | -0.03 |
| AAGAAACC | 0.0873 |
| GTCAGGAC | 0.0176 |
| ACCTCCAC | 0.0618 |
| ACATGAGA | 0.0391 |
| ACTTAGTC | -0.221 |
| CCTCTTAA | -0.0256 |
| GACCCAGC | -0.0591 |
| GCCTGTCA | 0.107 |
| CCTGAAAA | -0.0566 |
| ATTGGGTG | -0.0583 |
| CCAATTCC | 0.123 |
| ATGGGCGG | 0.104 |
| TTCGGAAA | 0.185 |
| CACTAAAG | 0.112 |
| AGGAAATG | 0.0999 |
| TATAGAAA | 0.0025 |
| CTCACCGA | 0.0948 |
| CAAGCACG | 0.0993 |

Study 2
Target: Prothrombin, mature alpha-thrombin (F2, Homo sapiens, UniProt P00734)
Method: aptamer microarray, sandwich
Form: DNA with 2'F-ANA
Medium: in vitro
Tested at: 200 nM
Setting: whole 15-mer aptamer, many near background
Together with: Cy3 exosite-II aptamer, 400 nM
Direction: higher = stronger binding
Oligonucleotide: GGTTGGTGTGGTTGG
| Modification | mean fluorescence intensity [a.u.] |
| --- | --- |
| 2'F-ANA at 3 4 6 7 8 12 13 14 | 419 |
| 2'F-ANA at 1 2 3 12 13 | 414 |
| 2'F-ANA at 1 3 5 7 8 10 15 | 47.5 |
| 2'F-ANA at 1 2 6 10 11 12 13 | 59.1 |
| 2'F-ANA at 1 3 5 8 9 10 | 47.7 |
| 2'F-ANA at 1 2 4 7 8 9 10 13 14 15 | 50.6 |
| 2'F-ANA at 2 4 5 7 8 10 12 14 | 44.4 |
| 2'F-ANA at 1 2 3 5 6 9 10 12 14 15 | 49 |
| 2'F-ANA at 3 4 8 9 12 13 14 15 | 285 |
| 2'F-ANA at 1 3 4 6 10 11 14 | 58.6 |
| 2'F-ANA at 5 7 8 13 14 | 43.2 |
| 2'F-ANA at 1 2 3 7 13 14 15 | 72.5 |
| 2'F-ANA at 2 3 7 9 11 14 | 398 |
| 2'F-ANA at 1 4 8 9 10 12 13 | 51.4 |
| 2'F-ANA at 2 5 6 7 8 9 10 13 15 | 43.8 |
| 2'F-ANA at 1 4 7 10 11 14 15 | 47.4 |
| 2'F-ANA at 1 2 3 4 7 8 11 14 | 89.6 |
| 2'F-ANA at 1 2 6 7 8 9 10 12 15 | 68.9 |
| 2'F-ANA at 1 2 3 4 6 7 9 12 13 14 | 57.7 |
| 2'F-ANA at 2 5 6 7 8 9 10 11 12 13 14 15 | 53.9 |
| 2'F-ANA at 4 6 9 11 15 | 195 |
| 2'F-ANA at 1 3 4 5 7 8 10 12 13 15 | 50 |
| 2'F-ANA at 2 3 4 6 7 9 12 | 656 |
| 2'F-ANA at 1 2 4 5 7 10 13 | 42 |

Study 3
Target: Sal-like protein 4, full length isoform B (SALL4, Homo sapiens, UniProt Q9UJQ4-2, residues 1-616)
Method: universal PBM
Form: double-stranded DNA, one strand shown
Medium: in vitro
Tested at: not given
Setting: 8-mer, flanks averaged, mean of replicates
Direction: higher = stronger binding
Target sequence (chain): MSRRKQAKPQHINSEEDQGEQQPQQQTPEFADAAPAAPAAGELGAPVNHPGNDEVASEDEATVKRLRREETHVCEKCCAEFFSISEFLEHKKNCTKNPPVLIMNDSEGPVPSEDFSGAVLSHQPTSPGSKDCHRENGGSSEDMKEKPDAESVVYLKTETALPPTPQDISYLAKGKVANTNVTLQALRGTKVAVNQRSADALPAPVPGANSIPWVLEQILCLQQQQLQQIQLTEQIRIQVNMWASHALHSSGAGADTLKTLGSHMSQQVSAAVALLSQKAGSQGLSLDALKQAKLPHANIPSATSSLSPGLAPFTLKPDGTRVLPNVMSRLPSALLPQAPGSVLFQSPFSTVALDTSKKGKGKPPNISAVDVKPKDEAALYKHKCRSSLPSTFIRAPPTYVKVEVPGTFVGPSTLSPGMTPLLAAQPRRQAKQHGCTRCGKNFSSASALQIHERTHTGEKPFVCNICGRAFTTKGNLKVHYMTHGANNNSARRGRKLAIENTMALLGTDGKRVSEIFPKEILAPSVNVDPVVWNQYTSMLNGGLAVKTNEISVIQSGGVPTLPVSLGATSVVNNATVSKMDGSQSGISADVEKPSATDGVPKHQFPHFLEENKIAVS
| Oligonucleotide | E-score |
| --- | --- |
| CCCCTAGG | -0.265 |
| GTAGACCA | -0.0871 |
| CCGATAAG | 0.00726 |
| CCCGGTCG | -0.418 |
| ATGGCGGG | 0.0381 |
| GAAGTAGC | -0.0535 |
| ATAATTGC | 0.344 |
| ACGCCTTA | -0.0206 |
| CATCACGA | 0.026 |
| GCCTGAAA | 0.0672 |
| CTGTAACC | 0.0575 |
| CCCAAGGA | -0.0894 |
| AGCTCAAC | -0.178 |
| AGCTTCTC | -0.18 |
| AATTTCCT | 0.189 |
| ATTGTGTG | 0.0227 |
| AATAAGTA | 0.365 |
| CTGGGGCA | -0.309 |
| ACGGTATA | -0.0314 |
| CCCTAATA | 0.311 |
| GGAGCCCA | -0.277 |
| AAGACTGA | 0.0996 |
| GAGATTCA | 0.00437 |
| CGCATGAA | -0.0471 |
| CTCGCATA | 0.079 |

Study 4
Target: UBE2Q1 UBC core domain (UniProt Q7Z7E8)
UniProt Q7Z7E8, sequence (whole entry, looked up): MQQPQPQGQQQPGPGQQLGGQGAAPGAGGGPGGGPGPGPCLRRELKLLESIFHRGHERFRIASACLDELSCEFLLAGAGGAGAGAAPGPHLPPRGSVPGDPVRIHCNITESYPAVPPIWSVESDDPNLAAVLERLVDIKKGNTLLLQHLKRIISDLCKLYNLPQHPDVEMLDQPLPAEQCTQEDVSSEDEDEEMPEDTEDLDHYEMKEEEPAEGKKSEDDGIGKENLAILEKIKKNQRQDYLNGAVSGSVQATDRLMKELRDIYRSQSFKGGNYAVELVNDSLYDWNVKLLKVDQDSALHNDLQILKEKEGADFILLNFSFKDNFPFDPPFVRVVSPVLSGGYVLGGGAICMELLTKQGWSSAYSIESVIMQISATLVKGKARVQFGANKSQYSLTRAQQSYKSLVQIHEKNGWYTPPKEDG
Method: yeast two-hybrid
Medium: yeast
Setting: mostly zero background
Baseline: not given
Direction: higher = stronger interaction
B1: TRIM37 RING domain (UniProt O94972); chain SVESIAEVFRCFICMEKLRDARLCPHCSKLCCFSCIRRWLTEQRAQCPHCRAPLQLRELVN
B2: RLIM RING domain (UniProt Q9NVW2); chain SFGENDALKTCSVCITEYTEGNKLRKLPCSHEYHVHCIDRWLSENSTCPICRRAVLASGNRE
B3: RNF166 RING domain (UniProt Q96A37); chain GDSGLEAQYTCPICLEVYHRPVAIGSCGHTFCGECLQPCLQVPSPLCPLCRLPFDPKKVDK
B4: RNF122 RING domain (UniProt Q9H9V4); chain AKKLQLYGQTCAVCLEDFKGKDELGVLPCQHAFHRKCLVKWLEVRCVCPMCNKPIASPSEAT
B5: TRIM31 RING domain (UniProt Q9BZY9); chain FVNKLQEEVICPICLDILQKPVTIDCGHNFCLKCITQIGETSCGFFKCPLCKTSVRKNAIRF
B6: RNF2 RING domain (UniProt Q99496); chain SPRSLHSELMCPICLDMLKNTMTTKECLHRFCADCIITALRSGNKECPTCRKKLVSKRSLR
B7: TRIM22 RING domain (UniProt Q8IYM9); chain VKVDIEKEVTCPICLELLTEPLSLDCGHSFCQACITAKIKESVIISRGESSCPVCQTRFQPGNLRP
| Sequence | lacZ reporter activity |
| --- | --- |
| AEADPLGRFTCPVCLEVYEKPVQVPCGHVFCSACLQECLKPKKPVCGVCRSALAPGVRAV (RNF114 RING domain (UniProt Q9Y508)) | 0 |
| B1 (TRIM37 RING domain) | 0 |
| B2 (RLIM RING domain) | 0 |
| B3 (RNF166 RING domain) | 0 |
| B4 (RNF122 RING domain) | 0 |
| B5 (TRIM31 RING domain) | 0 |
| YCEMGSTFQLCKICAENDKDVKIEPCGHLMCTSCLTAWQESDGQGCPFCRCEIKGTEPII (CBLB RING domain (UniProt Q13191)) | 0 |
| B6 (RNF2 RING domain) | 0 |
| B7 (TRIM22 RING domain) | 0 |
| LGTKLEAKYLCSACRNVLRRPFQAQCGHRYCSFCLASILSSGPQNCAACVHEGIYEEGIS (TRAF2 RING domain (UniProt Q12933)) | 0 |
| LDAASGHPLVCPLCHGQYERPCLLDCFHDFCTGCLRGRATDGRLSCPLCQHQTLVKGPSG (Rnf207 RING domain (UniProt Q3V3A7)) | 0 |

For quick reference, copied from above (study 4):
| Sequence | lacZ reporter activity |
| --- | --- |
| AEADPLGRFTCPVCLEVYEKPVQVPCGHVFCSACLQECLKPKKPVCGVCRSALAPGVRAV (RNF114 RING domain (UniProt Q9Y508)) | 0 |
| B1 (TRIM37 RING domain) | 0 |
| B2 (RLIM RING domain) | 0 |
| B3 (RNF166 RING domain) | 0 |
| B4 (RNF122 RING domain) | 0 |
